Measured values gathered from unrelated publications.
Every numbered part comes from another study and shows a few of its results, in no order.

Block 1
Target: Replicase polyprotein 1ab, nsp13 helicase (rep, Severe acute respiratory syndrome coronavirus 2, UniProt P0DTD1)
Action: inhibitor
Tested at: 20 µM
Measurement: inhibition
C[C@@H]1CN(CCCn2c3ccccc3c3ccccc32)C[C@H](C)N1: 5.61%
N#Cc1cnc2c(Cl)cc(NCc3cn(CCN4CCCCCC4)nn3)cc2c1Nc1ccc(F)c(Cl)c1: 4.07%
CN1CCc2c(c3ccccc3n2Cc2ccccc2)C1: 2.15%
N[C@@H](C(=O)O)c1ccc(C(=O)O)c(O)c1 (racemic): 0.09%
CC(=O)N[C@@H](CSC/C=C(\C)CC/C=C(\C)CCC=C(C)C)C(=O)O: 4.74%
Cc1cc(OCC(=O)O)cc(C)c1Cc1ccc(O)c(C(C)C)c1: 3.76%
CN1CCC(c2c[nH]c3ccc(O)cc23)CC1: -2.15%
CC(=O)N1CCN(CCOc2ccc(C3CCN(C4=Nn5c(nnc5C(F)(F)F)CC4)CC3)cc2)CC1: 4.99%
CC(=O)O[C@]1(C(C)=O)CC[C@H]2[C@@H]3C[C@H](C)C4=CC(=O)C=C[C@]4(C)[C@@]3(F)[C@@H](O)C[C@@]21C: 4%
O=C1C[C@@]2(C(=O)N1)C(=O)N(Cc1ccc(Br)cc1F)C(=O)c1cccn12: -1.14%
COc1ccc([C@@H]2CC(=O)c3c(O)cc(O)cc3O2)cc1O: 1.63%
CC(C)(Oc1ccc(C(=O)c2ccc(Cl)cc2)cc1)C(=O)O: 5.21%
CCCC1(CCC)CCC2(CCN(CCCN(CC)CC)C2)CC1: -1.95%
Nc1nc2c(ncn2COCCO)c(=O)[nH]1: -3.97%
CC1=C(/C=C/C(C)=C/C=C/C(C)=C/C=C/C=C(C)/C=C/C=C(C)/C=C/C2=C(C)C(=O)[C@@H](O)CC2(C)C)C(C)(C)C[C@H](O)C1=O: 5.82%
CC(C)[C@H]1c2ccc(F)cc2CC[C@@]1(CCN(C)CCCc1nc2ccccc2[nH]1)OC(=O)C1CC1: 1.86%
COC(=O)Nc1ccc(-c2nc(N3CCOCC3)c3cnn(C4CCN(C(=O)OC)CC4)c3n2)cc1: 0.33%
O=C1CC[C@@H](C(=O)N2CSC[C@H]2C(=O)O)N1: -4.24%
c1ccc(C(O[C@@H]2CCCN(CCc3ccc4c(c3)OCO4)C2)c2ccccc2)cc1: -3.88%
Nc1nc(OCc2ccccc2)c2nc[nH]c2n1: 12.3%
N[C@@H](CCNCc1ccc(Cl)cc1)C(=O)N1CCCCC1: -10.1%
CN(C)c1ccc(/C=C2\C(=O)Nc3ccccc32)cc1: -5.24%
CC1(C)S[C@@H]2[C@H](N)C(=O)N2[C@H]1C(=O)O: 2.62%
CC(C)NC(=O)c1ccc(C#Cc2ccncc2)cn1: 4.92%
O[C@H](CNC[C@@H](O)[C@H]1CCc2cc(F)ccc2O1)[C@@H]1CCc2cc(F)ccc2O1: 7.86%

Block 2
Cell line: HEK-293T
Observed: pseudovirus infection
Method: FDA-approved drug library screen
Organism: VSV pseudotyped with SARS-CoV-2 spike
Tested at: 10 µM
Time: 16 h
Reference: vehicle-treated
Measurement: GFP-positive cells
CCCOc1ccc(C(=O)OCCN(CC)CC)cc1N: 128%
NC(=O)N1c2ccccc2CC(=O)c2ccccc21: 82.6%
CN(C)CCC=C1c2ccccc2CCc2ccccc21: 35.4%
CCCSc1nc(N[C@@H]2C[C@H]2c2ccc(F)c(F)c2)c2nnn([C@@H]3C[C@H](OCCO)[C@@H](O)[C@H]3O)c2n1: 63.2%

Block 3
Target: Interferon regulatory factor 3, full length, phosphomimetic (IRF3, Homo sapiens, UniProt Q14653, residues 1-427, S386D/S396D/S398D/S402D/T404D/S405D)
UniProt Q14653, sequence (whole entry, unmodified, looked up): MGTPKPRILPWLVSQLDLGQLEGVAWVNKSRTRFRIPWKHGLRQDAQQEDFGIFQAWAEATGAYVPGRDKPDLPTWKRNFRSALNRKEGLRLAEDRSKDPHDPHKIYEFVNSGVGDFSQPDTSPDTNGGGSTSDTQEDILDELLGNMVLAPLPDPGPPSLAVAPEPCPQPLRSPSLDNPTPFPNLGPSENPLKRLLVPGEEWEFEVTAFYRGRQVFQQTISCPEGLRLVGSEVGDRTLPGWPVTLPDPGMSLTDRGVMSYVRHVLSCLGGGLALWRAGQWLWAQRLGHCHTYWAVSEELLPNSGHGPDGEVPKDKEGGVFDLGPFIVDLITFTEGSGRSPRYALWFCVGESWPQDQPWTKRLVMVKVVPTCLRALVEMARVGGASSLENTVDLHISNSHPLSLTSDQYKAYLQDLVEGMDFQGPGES
Method: protein-binding microarray
Molecule type: double-stranded DNA, one strand shown
Matrix: in vitro
Tested at: 2540 nM top
Notes: 60-bp whole probe
Added: salmon DNA 0.4 mg/ml
Reference: random background probes
Reading: higher = stronger binding
Measurement: fitted relative affinity
All sequences stand within: GCCTAGCAC … GTCTTGATTCGCTTGACGCTGCTG
GACGATCTCAGTATCGATACGTGCTAG: 1.53 z-score
TTAGATATCGGGACTGGAATAGTGCTA: -0.0413 z-score
TCAGGTTCCCATTCCAGACTGTGCTAG: 4.45 z-score
GACGGTATCGGTCTCGGGAGGTGCTAG: 4.48 z-score
AGAGAGAGAGAGAGAGAGAGGTGCTAG: -0.865 z-score
GACGATTTCAGTATCGAGAGGTGCTAG: 1.99 z-score
TCTAGCCTCCATTTTTACCCGTGCTAG: -0.243 z-score
TTAGGTTTCGACACTTGGTTAGTGCTA: 2.18 z-score

Block 4
Target: Replicase polyprotein 1ab, main protease (rep, Severe acute respiratory syndrome coronavirus 2, UniProt P0DTD1)
Observed: enzyme activity
Action: inhibitor
Tested at: 20 µM
Notes: hit confirmation
Measurement: inhibition
Nc1nc(Nc2ccc3c(c2)CC[C@@H](N2CCCC2)CC3)nn1-c1cc2c(nn1)-c1ccccc1CCC2: -21.2%
CCCCC1C(=O)N(c2ccccc2)N(c2ccc(O)cc2)C1=O (centres unmarked): 39.7%
COc1ccc(OC)c2c(=S)c3ccccc3[nH]c12: 95.2%
C[C@@H]1O[C@@H](O[C@@H]2[C@@H](O)[C@H](OCCc3ccc(O)c(O)c3)O[C@H](CO)[C@H]2OC(=O)/C=C/c2ccc(O)c(O)c2)[C@H](O)[C@H](O)[C@H]1O: 95.4%
CCCCc1nc(C)c(CC(=S)N(C)C)c(=O)n1Cc1ccc(-c2ccccc2-c2nnn[nH]2)cc1: 1%

Block 5
Target: RNA binding protein fox-1 homolog 2, RRM domain, GST-SBP tag (RBFOX2, Homo sapiens, UniProt O43251-10, residues 100-194)
Method: RNA Bind-n-Seq
Molecule type: RNA
Matrix: in vitro
Tested at: 365 nM
Notes: natural RNA segment, single round, ends assumed
Reference: no-protein control
Reading: higher = stronger binding
Measurement: RBNS enrichment (R)
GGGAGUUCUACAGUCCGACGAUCUUGUGCCCGAUGUCUGGCUCCCCUGCAGGAGGGAGGCUCCAGGGUAAGACAGGGCUGGCAGGAGCAGACUGCCUCAGCCCAUGUGCCCUGCCGGCCAGGGCGUGGGCUCCUGGAAUUCUCGGGUGCCAA: 0.497
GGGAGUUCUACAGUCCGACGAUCAUGGUCUUGCCCCAGCUGGCCCUGGCACAGGAGUUCUCUUACCUGGCUGGUGAGUGGCCUGUGUUAGUCUUGUGAGGACCUCGAGGAACCUAAAAGCUCAGAUGCACUUAUGGAAUUCUCGGGUGCCAA: 0.398
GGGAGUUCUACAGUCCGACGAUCUUUACUUAUGCAACUACUAAUUUAAAUACUUUCCAGAAGUGGGAUACAUAAAGCUAUGGUUUAAUAGCUGUAUUUAUUAAAGUACCUAUGAAGGGUUUGGGGUAGCAUUCUGGAAUUCUCGGGUGCCAA: 1.17
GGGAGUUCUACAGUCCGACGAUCUGAACUUCCAUGAUUGAUCCUUGAUAUAAAUAAUAAAAGAAAAUAUUUAUGAUGAAAUAUUUUAAUUAGGUCAAUUAUCUAGAAUUACCUAGUUUUGUCUAUAUAUCUUUUGGAAUUCUCGGGUGCCAA: 1.58
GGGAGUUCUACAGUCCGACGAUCUCCUAGUUUUUCAUAGGAGUCUAGGAUUUUGAUCUUUUAAAAAAUACAGUGUGAUUUCAUGCUUUUGAACAUCUUUUUUUCAUUGAAACAAAUUCAAGUUCUUGGCUUAAUGGAAUUCUCGGGUGCCAA: 0.576
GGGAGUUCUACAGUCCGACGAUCUUUUUUUUUUCACUUAGAAUUUAGCUCCAUUUGCUUGAGAGAGGGGGAAAAAUUCAUAUCUGUUUCUCUUUGUUUGCAAAUAAGCCUUAGGAUGGCUGUUUUCUAUGCUGUGGAAUUCUCGGGUGCCAA: 0.862
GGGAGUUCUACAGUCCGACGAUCUCACAUGAUUUCUUUUCUGGAUGGGUGCAAAGUAUCACAGGAAGUGUUUUCUCUCUGUCGCCUUGUUUUGUACCUGGGUCUCGCUUUACUAGACCGUCUCUGCACAAAAGUGGAAUUCUCGGGUGCCAA: 0.617
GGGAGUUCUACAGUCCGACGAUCCCCCCACUCUCCCCACACUAACCUGGGUUCCCUUUCCUUCCAUCCCUACCCCCUAAGAGCCAUUUAGGGGCCACUUUUGACUAGGGAUUCAGGCUGCUUGGGAUAAAGAUUGGAAUUCUCGGGUGCCAA: 0.472

Excerpt of the above (block 1):
N#Cc1cnc2c(Cl)cc(NCc3cn(CCN4CCCCCC4)nn3)cc2c1Nc1ccc(F)c(Cl)c1: 4.07%
CN1CCc2c(c3ccccc3n2Cc2ccccc2)C1: 2.15%
N[C@@H](C(=O)O)c1ccc(C(=O)O)c(O)c1 (racemic): 0.09%
CC(=O)N[C@@H](CSC/C=C(\C)CC/C=C(\C)CCC=C(C)C)C(=O)O: 4.74%
Cc1cc(OCC(=O)O)cc(C)c1Cc1ccc(O)c(C(C)C)c1: 3.76%
CN1CCC(c2c[nH]c3ccc(O)cc23)CC1: -2.15%
CC(=O)N1CCN(CCOc2ccc(C3CCN(C4=Nn5c(nnc5C(F)(F)F)CC4)CC3)cc2)CC1: 4.99%
